Published values pooled from the literature.
± marks the error that the study gave.
HTR2A: 5-hydroxytryptamine receptor 2A (HTR2A, Homo sapiens, UniProt P28223)
Sequence of UniProt P28223 (whole entry, looked up): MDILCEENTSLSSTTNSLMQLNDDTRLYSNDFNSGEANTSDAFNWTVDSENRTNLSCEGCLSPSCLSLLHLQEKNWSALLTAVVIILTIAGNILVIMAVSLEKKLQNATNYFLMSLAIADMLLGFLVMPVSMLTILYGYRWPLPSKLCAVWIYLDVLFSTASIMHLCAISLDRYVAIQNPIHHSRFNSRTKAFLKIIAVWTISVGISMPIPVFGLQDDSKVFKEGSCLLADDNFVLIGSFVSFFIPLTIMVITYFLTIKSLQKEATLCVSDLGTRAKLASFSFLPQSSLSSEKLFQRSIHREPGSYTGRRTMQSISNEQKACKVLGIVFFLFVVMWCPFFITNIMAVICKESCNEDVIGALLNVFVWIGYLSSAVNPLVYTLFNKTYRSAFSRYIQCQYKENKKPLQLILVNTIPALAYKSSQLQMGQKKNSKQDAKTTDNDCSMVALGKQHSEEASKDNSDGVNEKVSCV
GBA1 R534H: Lysosomal acid glucosylceramidase (GBA1, Homo sapiens, UniProt P04062, R534H)
Sequence of UniProt P04062 (whole entry, unmodified, looked up): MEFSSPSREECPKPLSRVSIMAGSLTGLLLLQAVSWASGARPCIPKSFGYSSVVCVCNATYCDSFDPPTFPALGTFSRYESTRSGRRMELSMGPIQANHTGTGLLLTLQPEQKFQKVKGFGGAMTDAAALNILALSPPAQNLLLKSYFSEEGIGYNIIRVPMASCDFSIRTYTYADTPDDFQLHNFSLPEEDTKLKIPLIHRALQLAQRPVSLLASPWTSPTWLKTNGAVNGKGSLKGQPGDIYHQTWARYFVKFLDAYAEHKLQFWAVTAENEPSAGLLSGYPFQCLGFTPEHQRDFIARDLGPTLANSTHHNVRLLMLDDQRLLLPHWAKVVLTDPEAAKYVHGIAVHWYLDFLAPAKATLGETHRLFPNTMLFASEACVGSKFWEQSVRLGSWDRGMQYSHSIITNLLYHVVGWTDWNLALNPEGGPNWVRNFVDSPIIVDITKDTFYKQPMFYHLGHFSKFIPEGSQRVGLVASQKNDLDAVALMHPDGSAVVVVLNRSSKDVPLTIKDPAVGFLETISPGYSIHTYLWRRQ
CA12: Carbonic anhydrase 12 (CA12, Homo sapiens, UniProt O43570)
Sequence of UniProt O43570 (whole entry, looked up): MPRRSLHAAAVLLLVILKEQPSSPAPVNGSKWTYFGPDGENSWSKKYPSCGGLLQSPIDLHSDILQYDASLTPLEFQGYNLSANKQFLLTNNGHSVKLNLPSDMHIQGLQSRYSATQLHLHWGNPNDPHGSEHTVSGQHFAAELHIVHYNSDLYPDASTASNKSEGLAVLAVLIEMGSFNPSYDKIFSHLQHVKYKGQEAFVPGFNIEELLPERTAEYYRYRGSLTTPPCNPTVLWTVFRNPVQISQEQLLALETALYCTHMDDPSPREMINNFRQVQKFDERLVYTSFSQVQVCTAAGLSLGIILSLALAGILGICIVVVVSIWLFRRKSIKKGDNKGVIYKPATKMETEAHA
HDAC6: Protein deacetylase HDAC6 (HDAC6, Homo sapiens, UniProt Q9UBN7)
Sequence of UniProt Q9UBN7 (whole entry, looked up): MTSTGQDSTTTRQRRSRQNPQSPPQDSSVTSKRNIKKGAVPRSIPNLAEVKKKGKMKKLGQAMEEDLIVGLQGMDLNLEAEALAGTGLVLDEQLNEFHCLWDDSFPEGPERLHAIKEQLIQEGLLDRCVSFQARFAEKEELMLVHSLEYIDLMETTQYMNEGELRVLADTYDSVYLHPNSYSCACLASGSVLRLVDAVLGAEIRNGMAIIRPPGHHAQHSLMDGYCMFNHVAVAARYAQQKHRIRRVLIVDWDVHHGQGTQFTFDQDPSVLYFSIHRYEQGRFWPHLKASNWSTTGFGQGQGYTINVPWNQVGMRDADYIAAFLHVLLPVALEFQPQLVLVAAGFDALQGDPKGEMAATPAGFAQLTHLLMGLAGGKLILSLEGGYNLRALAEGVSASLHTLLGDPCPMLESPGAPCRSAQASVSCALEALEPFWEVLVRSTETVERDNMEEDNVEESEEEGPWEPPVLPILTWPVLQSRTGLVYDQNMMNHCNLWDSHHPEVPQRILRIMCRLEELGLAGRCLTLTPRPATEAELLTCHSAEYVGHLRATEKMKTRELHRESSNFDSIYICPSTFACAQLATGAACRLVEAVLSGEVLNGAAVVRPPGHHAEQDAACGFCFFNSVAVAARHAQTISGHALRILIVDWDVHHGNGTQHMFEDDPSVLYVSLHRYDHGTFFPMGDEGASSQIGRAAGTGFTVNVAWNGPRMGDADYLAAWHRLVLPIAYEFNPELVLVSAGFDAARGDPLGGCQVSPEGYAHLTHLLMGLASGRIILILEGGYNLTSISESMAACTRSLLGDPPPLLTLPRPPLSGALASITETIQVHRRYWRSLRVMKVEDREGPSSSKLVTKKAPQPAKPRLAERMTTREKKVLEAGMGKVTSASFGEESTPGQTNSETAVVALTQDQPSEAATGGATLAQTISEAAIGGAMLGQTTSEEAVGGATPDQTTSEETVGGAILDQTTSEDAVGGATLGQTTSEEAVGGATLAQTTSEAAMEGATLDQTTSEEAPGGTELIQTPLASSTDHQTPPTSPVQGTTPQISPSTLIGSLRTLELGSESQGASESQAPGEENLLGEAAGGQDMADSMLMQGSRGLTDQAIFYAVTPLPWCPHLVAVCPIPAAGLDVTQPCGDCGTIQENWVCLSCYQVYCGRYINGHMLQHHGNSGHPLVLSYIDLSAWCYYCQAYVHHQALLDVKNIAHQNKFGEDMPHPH
WDR5: WD repeat-containing protein 5 (WDR5, Homo sapiens, UniProt P61964)
POLL: DNA polymerase lambda (POLL, Homo sapiens, UniProt Q9UGP5)
Sequence of UniProt Q9UGP5 (whole entry, looked up): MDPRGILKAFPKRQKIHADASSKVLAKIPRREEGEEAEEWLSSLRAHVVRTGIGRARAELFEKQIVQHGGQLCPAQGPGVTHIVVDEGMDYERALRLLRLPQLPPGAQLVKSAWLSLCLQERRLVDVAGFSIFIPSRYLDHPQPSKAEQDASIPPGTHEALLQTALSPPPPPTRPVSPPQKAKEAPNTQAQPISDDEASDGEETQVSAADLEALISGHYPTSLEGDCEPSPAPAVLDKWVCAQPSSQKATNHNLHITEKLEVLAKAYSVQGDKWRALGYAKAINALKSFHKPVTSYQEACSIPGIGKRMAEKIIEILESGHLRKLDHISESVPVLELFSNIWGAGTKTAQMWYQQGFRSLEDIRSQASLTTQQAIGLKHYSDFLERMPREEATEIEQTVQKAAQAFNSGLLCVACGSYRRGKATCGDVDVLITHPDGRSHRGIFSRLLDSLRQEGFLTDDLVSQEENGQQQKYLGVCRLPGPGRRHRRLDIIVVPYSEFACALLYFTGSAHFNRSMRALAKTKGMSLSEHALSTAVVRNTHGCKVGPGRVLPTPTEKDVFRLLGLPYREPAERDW
Sequence of UniProt P11086 (whole entry, looked up): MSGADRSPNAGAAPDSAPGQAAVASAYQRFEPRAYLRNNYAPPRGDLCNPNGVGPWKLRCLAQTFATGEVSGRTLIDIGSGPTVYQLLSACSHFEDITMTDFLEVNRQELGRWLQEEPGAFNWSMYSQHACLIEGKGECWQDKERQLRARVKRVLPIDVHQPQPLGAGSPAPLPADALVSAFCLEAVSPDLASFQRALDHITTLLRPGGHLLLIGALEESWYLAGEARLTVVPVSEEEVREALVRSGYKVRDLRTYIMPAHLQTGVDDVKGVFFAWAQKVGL
Sequence of UniProt P43235 (whole entry, looked up): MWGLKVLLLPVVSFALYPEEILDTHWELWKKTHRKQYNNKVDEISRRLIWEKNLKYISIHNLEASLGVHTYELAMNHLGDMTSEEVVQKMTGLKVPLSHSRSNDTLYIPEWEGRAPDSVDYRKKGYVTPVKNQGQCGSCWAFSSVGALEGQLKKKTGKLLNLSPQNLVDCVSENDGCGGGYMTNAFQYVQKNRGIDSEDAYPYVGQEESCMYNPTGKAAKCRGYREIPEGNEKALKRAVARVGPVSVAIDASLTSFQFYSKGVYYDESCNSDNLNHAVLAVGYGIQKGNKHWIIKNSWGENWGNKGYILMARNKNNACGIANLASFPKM
Sequence of UniProt P45983 (whole entry, looked up): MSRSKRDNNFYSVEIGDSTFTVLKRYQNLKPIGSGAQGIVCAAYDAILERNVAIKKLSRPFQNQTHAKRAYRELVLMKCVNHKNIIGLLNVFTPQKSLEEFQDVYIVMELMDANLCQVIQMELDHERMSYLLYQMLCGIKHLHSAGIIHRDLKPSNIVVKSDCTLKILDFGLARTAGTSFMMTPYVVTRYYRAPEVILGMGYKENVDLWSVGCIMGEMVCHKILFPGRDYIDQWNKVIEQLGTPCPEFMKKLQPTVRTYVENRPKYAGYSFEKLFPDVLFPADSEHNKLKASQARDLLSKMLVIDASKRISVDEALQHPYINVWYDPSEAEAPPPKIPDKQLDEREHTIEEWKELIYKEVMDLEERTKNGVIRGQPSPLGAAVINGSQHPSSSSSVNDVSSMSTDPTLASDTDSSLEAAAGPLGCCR
Sequence of UniProt P45985 (whole entry, looked up): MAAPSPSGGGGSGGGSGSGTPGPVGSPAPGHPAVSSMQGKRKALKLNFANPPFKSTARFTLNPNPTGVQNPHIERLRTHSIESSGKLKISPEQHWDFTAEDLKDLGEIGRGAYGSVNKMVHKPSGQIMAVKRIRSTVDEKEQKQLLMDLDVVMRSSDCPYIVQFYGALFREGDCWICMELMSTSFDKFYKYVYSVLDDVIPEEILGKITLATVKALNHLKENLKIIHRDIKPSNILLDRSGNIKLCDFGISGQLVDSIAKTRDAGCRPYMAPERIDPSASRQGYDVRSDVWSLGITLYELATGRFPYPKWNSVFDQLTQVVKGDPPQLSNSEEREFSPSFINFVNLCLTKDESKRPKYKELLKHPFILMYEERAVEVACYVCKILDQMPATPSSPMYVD

For `Cn1ccc2c(N3CCN(CCCCOc4ccc5c(c4)NC(=O)CC5)CC3)cccc21`, the Ki was 122 nM (HTR2A; ligand displacement, radioligand).
For `O=C(NCc1ccc2c(c1)CN(C(=O)c1cc(-c3ccccc3)no1)C2)C1C=CC=CC=C1`, the Ki was 3020 ± 780 nM (FSP1; NADH oxidase activity, inhibitor; pH 7.2, together with: NADH varied, no coenzyme Q1).
With `CCc1c(Cl)cccc1N1CCN(C[C@@H](F)CCNC(=O)c2cc3ccccc3[nH]2)CC1` the Ki was 292 nM (HTR2A; ligand displacement, radioligand; cell membranes).
`CC(C)=CCOCCCCCN1C[C@H](O)[C@@H](O)[C@H](O)[C@@H]1CO` has an IC50 of 100000 nM (GBA1 R534H; inhibitor, 4MU-β-D-glucopyranoside; together with: 4MU-β-D-glucopyranoside).
With `COC(=O)[C@]1(C)C=C(C(=O)Nc2cccc(C(=O)Nc3ccc(Nc4nccc(-c5cccnc5)n4)c(C)c3)c2)C(=O)CC1` the Ki was 2.1 nM (Mitogen-activated protein kinase 8 (MAPK8, Homo sapiens, UniProt P45983); SPR two-step binding model; wild-type protein surface).
`CCCCC1CCC(=O)O1` (stereo not drawn) gave a Ki of 7600 nM (CA12; enzyme activity, inhibitor, stopped-flow).
For `CCCCCNC(=O)C1C(O)C(O)C(O)C(CO)N1CCCC` (stereo not drawn), the IC50 was 25000 nM (GBA1 R534H; inhibitor, 4MU-β-D-glucopyranoside; together with: 4MU-β-D-glucopyranoside).
The Ki of `Cc1cc(C(C)(C)C)ccc1OS(=O)(=O)Oc1cncc(C(=O)NO)c1` is reported as 306 nM (HDAC6; enzyme activity, inhibitor, fluorescence).
For `CC[C@@H]1NC(=O)[C@H](CCCNC(=N)N)NC(=O)[C@H](NC(=O)C(C)C)CCNC(=O)c2cc(F)c(c(F)c2)N=Nc2c(F)cc(cc2F)C(=O)NCCNC1=O`, the Ki was 688 nM (WDR5; binding, inhibitor, competitive fluorescence polarization; trans isomer, 405 nm photostationary state).
`O=C(NO)c1cncc(OS(=O)(=O)Oc2ccccc2-c2ccccc2)c1` gave a Ki of 110 nM (HDAC6; enzyme activity, inhibitor, fluorescence).
For `O=P(O)(O)OP(=O)(O)OP(=O)(O)OCCCCO`, the Ki was 9000 nM (POLL; DNA polymerase activity, inhibitor; together with: 1 mM Mn2+, poly(dA)/oligo(dT)).
With `CC[C@@H]1NC(=O)[C@H](CCCNC(=N)N)NC(=O)[C@H](NC(=O)C(C)C)CCCCNC(=O)c2cc(F)c(c(F)c2)N=Nc2c(F)cc(cc2F)C(=O)NCCNC1=O` the Ki was 3690 nM (WDR5; binding, inhibitor, competitive fluorescence polarization; trans isomer, 405 nm photostationary state).
The Ki of `CC(C)c1ccc(OS(=O)(=O)Oc2cncc(C(=O)NO)c2)cc1` is reported as 28 nM (HDAC6; enzyme activity, inhibitor, fluorescence).
The Ki of `N#CSCCCCCCOc1ccc2c(-c3ccccc3)cc(=O)oc2c1` is reported as 126 nM (CA12; enzyme activity, inhibitor, stopped-flow).
The Kd of `Cc1c[nH]c2nccc(-c3ccc(C(=O)N[C@@H]4c5c(F)cc(C(F)F)cc5C[C@@H]4O)cn3)c12` is reported as 68.5 nM (Dual specificity mitogen-activated protein kinase kinase 4 (MAP2K4, Homo sapiens, UniProt P45985); binding, competition with immobilised ligand).
With `COC(=O)CN1CCCc2cc3cc(C(=O)NC(Cc4cccc(Cl)c4)C(=O)NCC=CS(=O)(=O)c4ccccc4)c(=O)oc3cc21` (stereo not drawn) the Ki was 76.6 nM (Cathepsin K (CTSK, Homo sapiens, UniProt P43235); enzyme activity, inhibitor, fluorescence).
`Nc1ncnc2c1ncn2[C@@H]1O[C@H](CNCCCc2cncc3ccccc23)[C@@H](O)[C@H]1O` — result for Ki: “no inhibition” (Phenylethanolamine N-methyltransferase (PNMT, Homo sapiens, UniProt P11086); inhibitor, SAH deaminase coupled).
For `O=C(NCCCCOP(=O)(O)OP(=O)(O)OP(=O)(O)O)OCC1c2ccccc2-c2ccccc21`, the Ki was 2100 nM (POLL; enzyme activity, inhibitor, radiometric).

Excerpt of the above:
With `COC(=O)CN1CCCc2cc3cc(C(=O)NC(Cc4cccc(Cl)c4)C(=O)NCC=CS(=O)(=O)c4ccccc4)c(=O)oc3cc21` (stereo not drawn) the Ki was 76.6 nM (Cathepsin K (CTSK, Homo sapiens, UniProt P43235); enzyme activity, inhibitor, fluorescence).
`Nc1ncnc2c1ncn2[C@@H]1O[C@H](CNCCCc2cncc3ccccc23)[C@@H](O)[C@H]1O` — result for Ki: “no inhibition” (Phenylethanolamine N-methyltransferase (PNMT, Homo sapiens, UniProt P11086); inhibitor, SAH deaminase coupled).
For `O=C(NCCCCOP(=O)(O)OP(=O)(O)OP(=O)(O)O)OCC1c2ccccc2-c2ccccc21`, the Ki was 2100 nM (POLL; enzyme activity, inhibitor, radiometric).
